Measurements of several laboratories.
Each numbered part is a random draw from the data of one study; scales do not carry over between parts. Positions count from the first letter of the parent shown.

Block 1
Target: ABI1, truncated, D143A, DHFR fusion (Arabidopsis thaliana)
Technique: DHFR PCA, deep sequencing
Sample: yeast
Notes: methotrexate growth selection, single substitutions
With: (+)-ABA 58 µM
Baseline: wild-type fitted maximum
Reading: higher = stronger binding
Starting sequence: PYL1, truncated, DHFR fusion (Arabidopsis thaliana); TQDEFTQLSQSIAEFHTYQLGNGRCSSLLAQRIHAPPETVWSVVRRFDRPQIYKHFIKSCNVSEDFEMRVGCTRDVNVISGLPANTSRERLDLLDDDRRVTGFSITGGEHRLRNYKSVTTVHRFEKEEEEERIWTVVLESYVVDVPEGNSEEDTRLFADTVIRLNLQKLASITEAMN; partner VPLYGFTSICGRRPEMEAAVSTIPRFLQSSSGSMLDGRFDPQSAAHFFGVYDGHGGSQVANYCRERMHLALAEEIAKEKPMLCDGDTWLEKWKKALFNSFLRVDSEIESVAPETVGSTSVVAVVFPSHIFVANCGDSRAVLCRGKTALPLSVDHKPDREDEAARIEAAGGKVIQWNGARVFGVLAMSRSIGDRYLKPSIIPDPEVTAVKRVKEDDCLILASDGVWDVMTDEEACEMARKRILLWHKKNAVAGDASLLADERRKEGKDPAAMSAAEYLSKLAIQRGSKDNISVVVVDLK
| Substitution | relative binding score |
| --- | --- |
| E147R | 73.6% |
| A13Q | 91.6% |
| S9P | 53.7% |
| T1H | 94.2% |
| N85L | 83.5% |
| A84G | 78.8% |
| I57D | 2.69% |
| E67Y | 74% |
| L91D | -11.9% |
| D97T | 92.9% |
| T154N | -11.9% |
| T1R | 84.3% |
| R46V | 45.3% |
| E131R | 93.8% |
| P146W | 4.45% |
| L28E | 2.74% |
| P37K | 4.03% |
| I162H | 10.7% |
| L112F | 76.2% |
| S42T | 77.6% |

Block 2
Target: Centromere-binding protein 1, full length, N-terminal tag (CBF1, Saccharomyces cerevisiae, UniProt P17106, residues 1-351)
Chain of UniProt P17106 (whole entry, looked up): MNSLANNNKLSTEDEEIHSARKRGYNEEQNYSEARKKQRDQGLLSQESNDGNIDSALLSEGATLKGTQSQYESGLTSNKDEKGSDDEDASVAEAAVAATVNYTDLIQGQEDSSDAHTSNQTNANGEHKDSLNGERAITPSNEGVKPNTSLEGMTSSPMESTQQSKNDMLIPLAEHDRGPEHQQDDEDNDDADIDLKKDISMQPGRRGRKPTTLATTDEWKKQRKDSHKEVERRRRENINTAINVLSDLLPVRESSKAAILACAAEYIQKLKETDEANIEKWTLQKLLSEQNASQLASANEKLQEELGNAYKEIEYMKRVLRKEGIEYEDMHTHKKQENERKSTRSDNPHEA
Technique: protein-binding microarray
Form: double-stranded DNA, one strand shown
Sample: in vitro
Tested at: 0.8 µM
Notes: whole 60-bp probe, no competitor
Reading: higher = stronger binding
| Strand | fluorescence intensity |
| --- | --- |
| GAACTTAAAAGTGTCCATGTGATGGGAGGGATCTAGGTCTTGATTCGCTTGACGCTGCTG | 1500 a.u. |
| GAAGTCATTCTACATCATGAATATTAATTTACCTAGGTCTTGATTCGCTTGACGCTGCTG | 536 a.u. |
| GAAGCCTATCCAGATTGGGTGACGCGTAAAGGATAGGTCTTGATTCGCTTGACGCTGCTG | 521 a.u. |
| CTATGGCTAGCGTCAAACGTCACCGATCTCTATTTCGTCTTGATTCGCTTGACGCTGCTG | 519 a.u. |
| GAATTTTATAAACCTCCCACCACCTGATAATCTTAGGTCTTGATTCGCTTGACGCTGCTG | 876 a.u. |
| CTATCATGAACGGTTTACGTGACTATTTTCACTTTCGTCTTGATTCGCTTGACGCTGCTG | 651 a.u. |
| TGTACGAAGCTATACATCGTGATTATAGTAGTTAGGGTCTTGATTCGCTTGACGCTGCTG | 713 a.u. |
| GAAAAAACAAAAGCAAATCACATGTGCACATACTAGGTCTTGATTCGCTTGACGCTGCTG | 4420 a.u. |
| CTACTACCTTCACTGCACGAAACCAAAACCGACTTCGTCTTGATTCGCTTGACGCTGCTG | 575 a.u. |
| GAACTATGGTTCTGTCACGGGGAGAGATAAGAATAGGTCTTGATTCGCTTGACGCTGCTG | 1410 a.u. |
| GAATTATAAGCTCATCACCTCTTTATTAAGTAGTAGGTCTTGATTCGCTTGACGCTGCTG | 530 a.u. |
| CTAAAAATTGACCTGCACATGGAGAAAGCGTAATTCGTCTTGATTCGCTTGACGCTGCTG | 572 a.u. |
| GAACTTCATCAAACAAACGTGCGCTGTTTGACTTAGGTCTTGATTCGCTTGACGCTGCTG | 570 a.u. |
| CTATTCGCGTACCACCACCATTACACATGTATATTCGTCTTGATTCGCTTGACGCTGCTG | 613 a.u. |
| CTAGATGTAATCCATCACCCCCCTATAAAAACATTCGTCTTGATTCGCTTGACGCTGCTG | 517 a.u. |
| CTAGATACTTAGGTATACCTGACGGGCAGTCCTTTCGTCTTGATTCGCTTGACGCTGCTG | 494 a.u. |

Block 3
Target: Histone acetyltransferase KAT6A, winged helix 2, GST fusion (KAT6A, Homo sapiens, UniProt Q92794, residues 85-181)
Technique: protein binding microarray
Form: double-stranded DNA, one strand shown
Sample: in vitro
Tested at: not given
Notes: 8-mer, flanks averaged, mean of 2 arrays, mostly near background
Baseline: not given
Reading: higher = stronger binding
Target sequence (chain): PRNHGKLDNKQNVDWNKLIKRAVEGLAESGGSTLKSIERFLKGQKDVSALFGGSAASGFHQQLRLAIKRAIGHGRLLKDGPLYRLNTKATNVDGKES
| Strand | E-score |
| --- | --- |
| GAATAGCC | -0.071 |
| CGACGCTC | 0.0417 |
| CCGGCGTC | 0.13 |
| AGGTGACC | -0.176 |
| AGTTATTC | -0.0679 |
| GCCACGCC | 0.0562 |
| ATCCACTG | -0.0604 |
| ATAATGGG | -0.0558 |
| AAAGCGTT | -0.103 |
| GTCGCAAC | -0.0333 |
| CACAAGAG | 0.0241 |
| AGGATCTA | -0.125 |
| ACTCGGGG | 0.179 |
| CGAGTCCA | -0.175 |
| GACGTTAC | -0.0786 |
| ACGTTATA | -0.078 |
| AGAGGAAA | 0.221 |
| ATGTAGCC | -0.185 |
| ATAGTATC | 0.027 |
| TCTCGGAA | 0.0728 |
| CGGTCCGA | 0.0977 |
| GCGCCTAA | 0.139 |

Block 4
Target: Ras GTPase-activating protein-binding protein 1, full length (G3BP1, Homo sapiens, UniProt Q13283)
Chain of UniProt Q13283 (whole entry, looked up): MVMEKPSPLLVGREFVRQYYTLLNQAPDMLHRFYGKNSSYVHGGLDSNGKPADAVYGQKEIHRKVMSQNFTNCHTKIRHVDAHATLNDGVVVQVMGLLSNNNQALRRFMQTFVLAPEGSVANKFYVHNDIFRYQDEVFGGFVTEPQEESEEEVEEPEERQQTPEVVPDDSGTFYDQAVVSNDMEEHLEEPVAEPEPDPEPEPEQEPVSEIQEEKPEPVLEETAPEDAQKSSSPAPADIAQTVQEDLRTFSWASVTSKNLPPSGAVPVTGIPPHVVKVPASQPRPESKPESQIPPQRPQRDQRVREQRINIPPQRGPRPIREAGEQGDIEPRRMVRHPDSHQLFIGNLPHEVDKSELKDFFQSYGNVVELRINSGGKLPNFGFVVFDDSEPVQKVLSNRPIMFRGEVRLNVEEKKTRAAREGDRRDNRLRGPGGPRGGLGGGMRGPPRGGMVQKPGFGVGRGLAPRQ
Technique: RNA Bind-n-Seq
Form: RNA
Sample: in vitro
Tested at: 200 nM
Notes: whole 134-nt RNA, ends assumed
With: 150 mM LiCl
Baseline: input library
Reading: higher = stronger binding
Each molecule: 7-deaza-guanosine replaces G
| Strand | log2 enrichment |
| --- | --- |
| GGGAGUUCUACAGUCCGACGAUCUCAAGUCCUGUGCUACACAUCGUAUGUACCGAAUCGGCCGGGGCCGGGGCCGGGGAAAGUAUUAUGUUACGCCGUUCGGAUCUGCACUUCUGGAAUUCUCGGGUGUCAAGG | -0.428 |
| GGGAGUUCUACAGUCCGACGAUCAAGUCCUGUGCUACACAUCGUAUGUACCGAAUCGGGAAAAAGGGAAAGGGAAAGGGAAAGUAUUAUGUUACGCCGUUCGGAUCUGCACUUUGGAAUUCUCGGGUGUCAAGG | -0.00596 |
| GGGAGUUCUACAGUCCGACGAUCUCCUCAAGUCCUGUGCUACACAUCGUAUGUACCGAAUCGGAGGUUUGGAGGAAAGUAUUAUGUUACGCCGUUCGGAUCUGCACUUCCAGCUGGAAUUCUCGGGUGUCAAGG | -0.848 |
| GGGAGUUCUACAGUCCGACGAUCCCUGUGCUACACAUCGUAUGUACCGAAUCGGGGAAAAAAAGGGGUUUGGGGUUUUUGGGGAAAGUAUUAUGUUACGCCGUUCGGAUCUGCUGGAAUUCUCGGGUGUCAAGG | -0.0657 |
| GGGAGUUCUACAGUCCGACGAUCCACAGACAACACGCACCCACACAGACACAGAGGGAAGGGGUUGGGAUGGGGACAGGGUGCACAGCAGGGCGGGGUAGGACCCCUGCCCCUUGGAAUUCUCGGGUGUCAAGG | -0.971 |
| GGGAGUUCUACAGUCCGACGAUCUUUUACAUUUAUACACAUGUAUUGGCUUCCUUUUACACUAUUAGGCGGUCAAGAAGCAGAUCGAGACGGCGGUCACAUUCUAAGUCUAGGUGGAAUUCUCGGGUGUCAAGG | -0.703 |
| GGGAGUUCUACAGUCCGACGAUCUCCUGUGCUACACAUCGUAUGUACCGAAUCGGGGUUUUUGGGGAAAAAGGGGUUUGGGGAAAGUAUUAUGUUACGCCGUUCGGAUCUGCAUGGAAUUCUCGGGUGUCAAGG | -0.803 |
| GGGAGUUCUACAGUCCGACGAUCCGCUAAAGAGGAGCACGGUGGACUGAUGUGAGCUUCUCUUCCUGCCCCUUCCUCCCUGAUGUCCACUCCCUUCACCUUCCUCACGCCCGUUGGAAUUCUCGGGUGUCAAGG | 0.863 |
| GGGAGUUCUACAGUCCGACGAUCCCUGUGCUACACAUCGUAUGUACCGAAUCGGGAAAAAAAGGGAAAAAGGGUUUUUUUGGGAAAGUAUUAUGUUACGCCGUUCGGAUCUGCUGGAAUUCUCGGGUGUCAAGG | -1.45 |
| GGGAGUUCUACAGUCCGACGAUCCCUGUGCUACACAUCGUAUGUACCGAAUCGGGGCCCCCCGGGGCCCCCCGGGGCCCCCCGGAAAGUAUUAUGUUACGCCGUUCGGAUCUGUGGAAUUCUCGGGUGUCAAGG | -1.29 |
| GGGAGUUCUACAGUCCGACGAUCUGGGAGGUGGAUUUUGUUUAUUUUUUUAGCACAUUUCCAGGGGUGGGAAUUUUUUUUUAAUAUGUGUCAUGAAUAAAGUUGUUUUUGAAAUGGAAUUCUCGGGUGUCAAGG | 0.0785 |

For quick reference, copied from above (block 3):
| Strand | E-score |
| --- | --- |
| ATAGTATC | 0.027 |
| GCGCCTAA | 0.139 |
| CGACGCTC | 0.0417 |
| AAAGCGTT | -0.103 |
| GACGTTAC | -0.0786 |
| ACTCGGGG | 0.179 |
| CACAAGAG | 0.0241 |
| ATCCACTG | -0.0604 |
| GAATAGCC | -0.071 |
